# Published values of several laboratories.
# Compare with care: the assays were run in different laboratories. ± marks the error that the study gave.
Molecule,test,test system,conditions,how to read,measurement,result
COc1ccc2c3c1O[C@H]1C[C@@H](O)C=C[C@@]31CCN(C)C2,"adaptive tracking performance, PK-PD modelling","healthy elderly humans, plasma",,,EC50,0.172 µg/mL
CC[C@H](C)[C@H](NC(=O)[C@H](CC(C)C)NC(=O)[C@H](Cc1c[nH]c2ccccc12)NC(=O)[C@H](CCC(N)=O)NC(=O)[C@@H](NC(=O)[C@H](Cc1ccccc1)NC(=O)[C@H](C)NC(=O)[C@H](CCCCNC(=O)COCCOCCNC(=O)COCCOCCNC(=O)CC[C@H](NC(=O)CCCCCCCCCCCCCCCCCCC(=O)O)C(=O)O)NC(=O)[C@H](CCC(N)=O)NC(=O)[C@H](C)NC(=O)[C@@H](NC(=O)[C@H](CCCCN)NC(=O)[C@H](CC(=O)O)NC(=O)[C@H](CC(C)C)NC(=O)C(C)(C)NC(=O)[C@@H](NC(=O)[C@H](CO)NC(=O)[C@H](Cc1ccc(O)cc1)NC(=O)[C@H](CC(=O)O)NC(=O)[C@H](CO)NC(=O)[C@@H](NC(=O)[C@H](Cc1ccccc1)NC(=O)[C@@H](NC(=O)CNC(=O)[C@H](CCC(=O)O)NC(=O)C(C)(C)NC(=O)[C@@H](N)Cc1ccc(O)cc1)[C@@H](C)O)[C@@H](C)O)[C@@H](C)CC)[C@@H](C)CC)C(C)C)C(=O)N[C@@H](C)C(=O)NCC(=O)NCC(=O)N1CCC[C@H]1C(=O)N[C@@H](CO)C(=O)N[C@@H](CO)C(=O)NCC(=O)N[C@@H](C)C(=O)N1CCC[C@H]1C(=O)N1CCC[C@H]1C(=O)N1CCC[C@H]1C(=O)N[C@@H](CO)C(N)=O,,Japanese type 2 diabetes patients,"dose not given, 8 weeks",reference: placebo,body weight change,≤ 6.6 kg
NNC(=O)Cn1c2ccccc2c2cn[nH]c(=O)c21,,Ehrlich ascites carcinoma mouse,dose not given,,mean survival time,17.2 days
neuropeptide Y,,"rat, plasma","intratesticular, 1 µg/kg, with: hCG",,cumulative testosterone release,22.7 ± 3.15 ng/mL
CN1Cc2ccccc2[C@@H]2c3cccc4[nH]cc(c34)C[C@H]21,,"rat, prefrontal cortex",10 nmol/kg,reference: control,spike-LFP synchronization,decreased
CC(=O)N1CC[C@@H](NC(=O)[C@@H](N)Cc2c(C)cc(O)cc2C)c2cc(Cc3ccccc3)ccc21,warm water tail withdrawal,C57BL/6 mice,"intraperitoneal, up to 10 mg/kg cumulative",,antinociception,inactive
CSCC[C@@H]1NC(=O)[C@H](CC(C)C)NC(=O)[C@H](CCCCN)NC(=O)[C@H](CCC(N)=O)NC(=O)[C@H](CCCNC(=N)N)NC(=O)[C@H](CCCCN)NC(=O)[C@H](CCCNC(=N)N)NC(=O)[C@H](CCC(N)=O)NC(=O)[C@H](C(C)C)NC(=O)[C@@H](NC(=O)[C@@H]2CCCN2C(=O)[C@H](C)NC(=O)[C@H](CC(C)C)NC(=O)[C@H](CC(C)C)NC(=O)[C@H](C)NC(=O)[C@H](CC(C)C)NC(=O)[C@H](CC(C)C)NC(=O)[C@@H](NC(=O)[C@H](C)NC(=O)[C@@H]2CCCN2C(=O)[C@H](CC(C)C)NC(=O)[C@H](CC(C)C)NC(=O)[C@H](C)NC(=O)[C@@H](NC(=O)[C@H](C)NC(=O)[C@H](C)N)C(C)C)C(C)C)CSSC[C@@H](C(=O)O)NC(=O)[C@@H]2CCCN2C1=O,,"Ldlr-/- mice, female, Western diet, aortic root","ip, 0.7 mg/mouse twice daily, 4 weeks, first weeks of diet",reference: saline,lesion reduction,~50%
Oc1cc2c(cc1O)C(c1ccccc1)CNCC2 (stereo not shown),"cocaine-appropriate responding, drug discrimination",male rats trained on cocaine,"intraperitoneal, AFR, with: cocaine 10 mg/kg training dose",,dose for full substitution,32 mg/kg
WRWWWW-NH2 (C-amide),inhibitor,"peptide, BALB/c mouse, female, air pouch","7.5 mg/kg, 4 h, dosed 15 min before, with: PSMα2 27 µM",,leukocyte influx,inhibited
CC[C@H](C)[C@H](NC(=O)[C@H](Cc1ccc(O)cc1)NC(=O)[C@@H]1CCCN1C(=O)[C@H](CCCNC(=N)N)NC(=O)[C@H](CCCNC(=N)N)NC(=O)[C@@H]1CCCN1C(=O)[C@H](CCCCN)NC(=O)[C@H](CSC1CC(=O)N(CCNC(=O)CCCCC[N+]2=C(C=CC=CC=C3N(CC)c4ccc5c(S(=O)(=O)O)cc(S(=O)(=O)[O-])cc5c4C3(C)C)C(C)(C)c3c2ccc2c(S(=O)(=O)O)cc(S(=O)(=O)O)cc32)C1=O)NC(=O)CN1CCN(CC(=O)O)CCN(CC(=O)O)CCN(CC(=O)O)CC1)C(=O)N[C@@H](CC(C)C)C(=O)O (stereo partly shown) [copper-64 labelled],PET imaging,"HT-29 xenograft, male BALB/c nu/nu mice","intravenous, 4 h",,tumour uptake,1.79 ± 0.16 %ID/g
N#N,benzocaine metabolism,human erythrocytes in plasma,"concentration not given, 37 °C, with: benzocaine 3 µg/mL",,inhibition,no inhibition
Cc1sc2c(c1C)C(c1ccc(Cl)cc1)=N[C@@H](CC(=O)OC(C)(C)C)c1nnc(C)n1-2,,"mice, MB002 intracranial xenograft","intraperitoneal, 50 mg/kg daily, with: ribociclib 100 mg/kg oral daily",,median survival,40 days
CC(NC(C)(C)C)C(=O)c1cccc(Cl)c1 (stereo not shown),"nicotine antinociception, antagonist, hot-plate test",mouse,with: nicotine 2.5 mg/kg s.c.,,AD50,15 mg/kg
C[C@@H]1NC(C)(C)CO[C@@]1(O)c1ccc(-c2ccccc2)cc1,"nicotine antinociception blockade, antagonist, tail-flick test",mouse,"15 min pretreatment, with: nicotine 2.5 mg/kg subcutaneous",,AD50,0.021 mg/kg
CN[C@H](CC(C)C)C(=O)N[C@H]1C(=O)N[C@@H](CC(N)=O)C(=O)N[C@H]2C(=O)N[C@H]3C(=O)N[C@H](C(=O)N[C@H](C(=O)O)c4cc(O)cc(O)c4-c4cc3ccc4O)[C@H](O)c3ccc(c(Cl)c3)Oc3cc2cc(c3O[C@@H]2O[C@H](CO)[C@@H](O)[C@H](O)[C@H]2O[C@H]2C[C@](C)(N)[C@H](O)[C@H](C)O2)Oc2ccc(cc2Cl)[C@H]1O,,Japanese patients with SSTI,"intravenous, 1 g twice daily, 7 to 14 days, test-of-cure, MITT-MRSA",,clinical success,84.2%
O=C1O[C@H]([C@@H](O)CO)C(O)=C1O,"ABTS scavenging, absorbance",,15 min,,IC50,30.4 µM

# A few entries again:
Molecule,test,test system,conditions,how to read,measurement,result
CSCC[C@@H]1NC(=O)[C@H](CC(C)C)NC(=O)[C@H](CCCCN)NC(=O)[C@H](CCC(N)=O)NC(=O)[C@H](CCCNC(=N)N)NC(=O)[C@H](CCCCN)NC(=O)[C@H](CCCNC(=N)N)NC(=O)[C@H](CCC(N)=O)NC(=O)[C@H](C(C)C)NC(=O)[C@@H](NC(=O)[C@@H]2CCCN2C(=O)[C@H](C)NC(=O)[C@H](CC(C)C)NC(=O)[C@H](CC(C)C)NC(=O)[C@H](C)NC(=O)[C@H](CC(C)C)NC(=O)[C@H](CC(C)C)NC(=O)[C@@H](NC(=O)[C@H](C)NC(=O)[C@@H]2CCCN2C(=O)[C@H](CC(C)C)NC(=O)[C@H](CC(C)C)NC(=O)[C@H](C)NC(=O)[C@@H](NC(=O)[C@H](C)NC(=O)[C@H](C)N)C(C)C)C(C)C)CSSC[C@@H](C(=O)O)NC(=O)[C@@H]2CCCN2C1=O,,"Ldlr-/- mice, female, Western diet, aortic root","ip, 0.7 mg/mouse twice daily, 4 weeks, first weeks of diet",reference: saline,lesion reduction,~50%
